Measured values collected from several papers.
Numbered parts are unrelated; each lists some results of a single study.

Set 1 — method: RNA Bind-n-Seq; form: RNA; matrix: in vitro; tested at: not given; setting: RNA with constant flanks, ends assumed; baseline: input RNA pool; direction: higher = stronger binding
Target: RING finger protein unkempt homolog, zinc fingers 1-6, GST-SBP tag (UNK, Homo sapiens, UniProt Q9C0B0, residues 30-357)
UniProt Q9C0B0, sequence (30-357, looked up): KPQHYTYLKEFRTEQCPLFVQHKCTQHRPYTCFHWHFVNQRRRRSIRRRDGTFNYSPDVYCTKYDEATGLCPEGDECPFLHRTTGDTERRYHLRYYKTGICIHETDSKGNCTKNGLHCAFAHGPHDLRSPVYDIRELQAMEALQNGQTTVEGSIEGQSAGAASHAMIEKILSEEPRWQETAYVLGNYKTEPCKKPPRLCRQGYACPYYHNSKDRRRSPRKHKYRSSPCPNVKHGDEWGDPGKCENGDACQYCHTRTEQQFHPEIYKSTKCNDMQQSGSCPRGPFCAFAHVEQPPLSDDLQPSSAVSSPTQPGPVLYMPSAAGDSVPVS
With `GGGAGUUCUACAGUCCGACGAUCUGGACUUUGAGUUUGCUGCAUGGCAGAUGCUCUACCUGUUUACCUCUCCUCAGAGGGUUUACCGAAACUUUCACUACCGGAAGCAAACAAAGGACCAGUGGGCCAGAGAUGACCCUGCCUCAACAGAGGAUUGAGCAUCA` the bound/input enrichment was 0.108 ratio.
`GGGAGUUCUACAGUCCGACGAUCAUCAAUGUGAAGAAGGGGAGCAUCUCGGGGAUUACCAUGGUGCUGGCAUGCUACGUGCUCUUCCGCUACUCCUUUUCCUACAAGCAUCUCAAGCACGAGCGGCUCCGCAAAUACCACUGACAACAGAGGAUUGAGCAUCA` has a bound/input enrichment of 0.16 ratio.
With `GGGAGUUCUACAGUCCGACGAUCGGGGUUCAGGGUGAGGAGAGCGCGGAGGGACUGUGUCCCAGUUGGUGGUGUGUGGGGUCUAUCCGUCUCAUCCAUGUCUGUUUGUCCUCAGCCCUGAGGUGCGCACCGAUAUCGAUAUUCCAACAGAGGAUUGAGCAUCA` the bound/input enrichment was 0.139 ratio.
`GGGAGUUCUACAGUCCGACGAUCCAGUCCUGCGUUUCCUCCCUAAAUUCUAUUUUGUUAUUUGGUUUUCUUUACUCUGGUUUUCCGUAACAGGAUCACGUAUUAAAAUUUGCUGUUAAUUAAAGUUUACCUUUUGAUUUUACACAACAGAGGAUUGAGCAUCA` has a bound/input enrichment of 0.415 ratio.
The bound/input enrichment of `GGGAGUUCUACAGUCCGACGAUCUGCCCUUCCAGUAAUAGUUAAUUUUGAAUAAUUAUGUAUUGUCUGAAAAGCAAUGAGUGCCCGUUUUUGUUUUCUUUGUUUAAAAAAAAAAACAAAAAUCCCCACAAACGUUUGUUGUUUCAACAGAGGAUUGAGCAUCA` is reported as 3.66 ratio.
With `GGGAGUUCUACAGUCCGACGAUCAAUUGAACAAAAAUGUUUCCACUGGCUUUUGCCUGUAAGAAAAAAAAUGUACCCGAGCACACCGAGCUUUUUAAUAGCACUAACCAAUGCCUUUUUAGAUGUAUUUUUGAUGUAUAUAUCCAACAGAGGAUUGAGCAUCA` the bound/input enrichment was 48.1 ratio.

Set 2 — method: protein binding microarray; form: double-stranded DNA, one strand shown; matrix: in vitro; tested at: not given; baseline: not given; direction: higher = stronger binding
Target: Histone acetyltransferase KAT6A, both winged helices, GST fusion (KAT6A, Homo sapiens, UniProt Q92794, residues 1-181)
Setting: 8-mer, flanks averaged, mean of 2 arrays, mostly near background
Construct (chain): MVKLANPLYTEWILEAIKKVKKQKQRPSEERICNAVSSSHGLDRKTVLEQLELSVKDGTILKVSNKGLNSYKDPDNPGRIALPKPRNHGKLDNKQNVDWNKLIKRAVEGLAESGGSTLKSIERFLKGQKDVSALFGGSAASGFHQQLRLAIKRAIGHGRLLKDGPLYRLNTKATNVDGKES
For `AACCGGAA`, the E-score was 0.202.
With `AGGTACCC` the E-score was -0.133.
`CCAGGCGA` has an E-score of -0.155.
`CCTCCCCG` gave an E-score of 0.159.
The E-score of `GATCGCAA` is reported as 0.0139.
`AGGTTAGA` has an E-score of -0.207.
`ACTACACG` has an E-score of -0.012.
For `GGTGTAGA`, the E-score was -0.141.
`CGAGGTCA` gave an E-score of 0.0367.
For `AGGGCCTC`, the E-score was -0.189.

Set 3 — method: protein-binding microarray; form: double-stranded DNA, one strand shown; matrix: in vitro; tested at: 2200 nM top; setting: 60-bp whole probe; with: salmon DNA 0.4 mg/ml; baseline: random background probes; direction: higher = stronger binding; constant ends, left off below: GCCTAGCAC … GTCTTGATTCGCTTGACGCTGCTG
Target: Interferon regulatory factor 7, full length, phosphomimetic (IRF7, Homo sapiens, UniProt Q92985, residues 1-503, S471D/S472D/S475D/S476D/S477D/S483D/S484D/S487D)
UniProt Q92985, sequence (whole entry, unmodified, looked up): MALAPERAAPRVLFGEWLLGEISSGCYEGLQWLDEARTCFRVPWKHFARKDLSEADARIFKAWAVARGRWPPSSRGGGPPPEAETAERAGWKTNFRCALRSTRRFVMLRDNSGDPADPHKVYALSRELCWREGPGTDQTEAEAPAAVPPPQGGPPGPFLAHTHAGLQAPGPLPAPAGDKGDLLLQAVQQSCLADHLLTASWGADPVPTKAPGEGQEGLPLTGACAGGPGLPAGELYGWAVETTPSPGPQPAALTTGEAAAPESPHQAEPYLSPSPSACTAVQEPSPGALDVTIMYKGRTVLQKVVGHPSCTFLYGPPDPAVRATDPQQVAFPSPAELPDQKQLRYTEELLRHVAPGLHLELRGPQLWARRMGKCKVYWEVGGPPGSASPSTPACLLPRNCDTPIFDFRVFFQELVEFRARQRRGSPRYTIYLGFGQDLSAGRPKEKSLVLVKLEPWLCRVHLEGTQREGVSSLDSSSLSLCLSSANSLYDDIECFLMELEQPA
For `GTCATTTACATTTTAGTAGTGTGCTAG`, “fitted relative affinity” read 1.53 z-score.
`TTAGGATTCGGGACTGGGTTAGTGCTA`: “fitted relative affinity” 0.0331 z-score.
Under “fitted relative affinity”, `GACGATACCAGTTTCGAGACGTGCTAG` is recorded as 3.7 z-score.
`ACTAGATAAGACAAAGTGATGTGCTAG`: “fitted relative affinity” -0.882 z-score.
`TTTGCTTTCCTGATGGTCTTGTGCTAG` — result for “fitted relative affinity”: 3.06 z-score.
`GACGCACTGGACTATCGGGACGTGCTA`: “fitted relative affinity” -0.392 z-score.
`TTAGAATTCAGTCTCGATTAGTGCTAG`: “fitted relative affinity” 0.16 z-score.
`CCCCAACTCGCCTTTTTTGTTGTGCTA`: “fitted relative affinity” 0.242 z-score.

Further values, each from its own experiment
The fold induction of `PhoQ, residues 284 288 289 292 302 303 SLKLQV` is reported as 12.5 (PhoP, residues 12 14 15 18 19 QWHVF (Escherichia coli, UniProt P23836); Sort-seq, item: YFP reporter; E. coli; PhoQ-PhoP variant library, with: 10 µM Mg2+; baseline: high Mg2+ state, higher = stronger signaling).

For quick reference, copied from above (set 3):
For `GTCATTTACATTTTAGTAGTGTGCTAG`, “fitted relative affinity” read 1.53 z-score.
`TTAGGATTCGGGACTGGGTTAGTGCTA`: “fitted relative affinity” 0.0331 z-score.
Under “fitted relative affinity”, `GACGATACCAGTTTCGAGACGTGCTAG` is recorded as 3.7 z-score.
